# Results gathered from unrelated publications.
# A part holds a random share of what one study measured. Positions count from the first letter of the parent shown.
# UniProt P19525, sequence (whole entry, looked up): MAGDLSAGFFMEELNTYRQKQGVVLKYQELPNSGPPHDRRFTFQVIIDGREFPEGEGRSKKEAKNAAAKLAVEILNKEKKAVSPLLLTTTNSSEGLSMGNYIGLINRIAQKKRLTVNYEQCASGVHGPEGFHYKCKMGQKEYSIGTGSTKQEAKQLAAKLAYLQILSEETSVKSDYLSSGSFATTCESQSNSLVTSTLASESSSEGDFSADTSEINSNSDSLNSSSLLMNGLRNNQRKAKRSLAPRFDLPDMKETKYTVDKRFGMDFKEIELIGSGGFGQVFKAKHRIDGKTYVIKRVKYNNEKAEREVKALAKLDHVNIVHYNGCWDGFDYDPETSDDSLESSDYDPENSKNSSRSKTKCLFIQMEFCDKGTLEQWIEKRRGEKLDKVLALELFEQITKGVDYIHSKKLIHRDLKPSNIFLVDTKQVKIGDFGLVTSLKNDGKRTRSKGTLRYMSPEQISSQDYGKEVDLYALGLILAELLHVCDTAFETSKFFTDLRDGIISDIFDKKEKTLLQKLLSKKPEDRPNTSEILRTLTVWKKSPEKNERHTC
# UniProt P51817, sequence (whole entry, looked up): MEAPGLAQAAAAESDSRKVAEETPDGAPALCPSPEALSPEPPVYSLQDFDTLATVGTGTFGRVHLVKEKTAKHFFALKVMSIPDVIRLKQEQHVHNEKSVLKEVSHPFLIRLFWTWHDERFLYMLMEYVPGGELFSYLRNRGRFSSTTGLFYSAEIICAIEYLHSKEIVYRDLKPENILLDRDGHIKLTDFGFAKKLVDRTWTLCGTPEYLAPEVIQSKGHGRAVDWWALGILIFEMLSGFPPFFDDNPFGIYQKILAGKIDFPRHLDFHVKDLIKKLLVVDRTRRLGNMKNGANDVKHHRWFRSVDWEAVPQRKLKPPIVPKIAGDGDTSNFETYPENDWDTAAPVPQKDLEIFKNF
# UniProt P51451, sequence (whole entry, looked up): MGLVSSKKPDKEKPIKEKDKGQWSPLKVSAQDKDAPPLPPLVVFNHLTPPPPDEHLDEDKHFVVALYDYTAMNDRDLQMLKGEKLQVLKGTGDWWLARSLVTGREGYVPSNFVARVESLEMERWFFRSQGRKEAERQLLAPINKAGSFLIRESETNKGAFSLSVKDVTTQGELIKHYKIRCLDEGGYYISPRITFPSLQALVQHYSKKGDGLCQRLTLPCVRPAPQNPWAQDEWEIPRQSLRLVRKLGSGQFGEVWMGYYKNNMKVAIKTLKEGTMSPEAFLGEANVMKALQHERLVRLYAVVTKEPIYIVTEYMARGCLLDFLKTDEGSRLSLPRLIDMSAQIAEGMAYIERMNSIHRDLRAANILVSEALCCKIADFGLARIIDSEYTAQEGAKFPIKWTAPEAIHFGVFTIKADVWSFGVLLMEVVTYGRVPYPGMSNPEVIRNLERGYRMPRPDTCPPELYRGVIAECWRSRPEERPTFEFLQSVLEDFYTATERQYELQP
# UniProt Q16832, sequence (whole entry, looked up): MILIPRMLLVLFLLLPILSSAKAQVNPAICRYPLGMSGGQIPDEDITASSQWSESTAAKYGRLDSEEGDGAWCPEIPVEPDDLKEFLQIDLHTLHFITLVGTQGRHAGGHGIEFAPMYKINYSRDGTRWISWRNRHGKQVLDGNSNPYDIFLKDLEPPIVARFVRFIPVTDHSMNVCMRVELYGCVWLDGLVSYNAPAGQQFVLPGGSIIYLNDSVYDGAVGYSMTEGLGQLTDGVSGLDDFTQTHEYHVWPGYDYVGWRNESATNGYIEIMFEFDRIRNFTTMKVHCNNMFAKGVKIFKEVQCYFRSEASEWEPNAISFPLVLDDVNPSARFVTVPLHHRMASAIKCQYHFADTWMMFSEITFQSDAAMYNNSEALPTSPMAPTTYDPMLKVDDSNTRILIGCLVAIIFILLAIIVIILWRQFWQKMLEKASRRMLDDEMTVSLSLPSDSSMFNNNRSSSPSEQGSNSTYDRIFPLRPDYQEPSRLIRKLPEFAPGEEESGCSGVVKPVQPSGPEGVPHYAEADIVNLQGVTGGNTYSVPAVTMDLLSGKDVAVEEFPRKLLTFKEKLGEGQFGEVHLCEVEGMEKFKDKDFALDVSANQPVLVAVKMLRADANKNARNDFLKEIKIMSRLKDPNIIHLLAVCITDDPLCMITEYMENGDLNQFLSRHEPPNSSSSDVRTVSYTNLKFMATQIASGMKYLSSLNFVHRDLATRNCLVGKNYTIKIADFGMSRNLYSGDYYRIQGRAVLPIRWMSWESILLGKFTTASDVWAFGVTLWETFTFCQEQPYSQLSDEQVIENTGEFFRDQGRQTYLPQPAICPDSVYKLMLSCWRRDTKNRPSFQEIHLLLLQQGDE
# UniProt Q9UM73, sequence (whole entry, unmodified, looked up): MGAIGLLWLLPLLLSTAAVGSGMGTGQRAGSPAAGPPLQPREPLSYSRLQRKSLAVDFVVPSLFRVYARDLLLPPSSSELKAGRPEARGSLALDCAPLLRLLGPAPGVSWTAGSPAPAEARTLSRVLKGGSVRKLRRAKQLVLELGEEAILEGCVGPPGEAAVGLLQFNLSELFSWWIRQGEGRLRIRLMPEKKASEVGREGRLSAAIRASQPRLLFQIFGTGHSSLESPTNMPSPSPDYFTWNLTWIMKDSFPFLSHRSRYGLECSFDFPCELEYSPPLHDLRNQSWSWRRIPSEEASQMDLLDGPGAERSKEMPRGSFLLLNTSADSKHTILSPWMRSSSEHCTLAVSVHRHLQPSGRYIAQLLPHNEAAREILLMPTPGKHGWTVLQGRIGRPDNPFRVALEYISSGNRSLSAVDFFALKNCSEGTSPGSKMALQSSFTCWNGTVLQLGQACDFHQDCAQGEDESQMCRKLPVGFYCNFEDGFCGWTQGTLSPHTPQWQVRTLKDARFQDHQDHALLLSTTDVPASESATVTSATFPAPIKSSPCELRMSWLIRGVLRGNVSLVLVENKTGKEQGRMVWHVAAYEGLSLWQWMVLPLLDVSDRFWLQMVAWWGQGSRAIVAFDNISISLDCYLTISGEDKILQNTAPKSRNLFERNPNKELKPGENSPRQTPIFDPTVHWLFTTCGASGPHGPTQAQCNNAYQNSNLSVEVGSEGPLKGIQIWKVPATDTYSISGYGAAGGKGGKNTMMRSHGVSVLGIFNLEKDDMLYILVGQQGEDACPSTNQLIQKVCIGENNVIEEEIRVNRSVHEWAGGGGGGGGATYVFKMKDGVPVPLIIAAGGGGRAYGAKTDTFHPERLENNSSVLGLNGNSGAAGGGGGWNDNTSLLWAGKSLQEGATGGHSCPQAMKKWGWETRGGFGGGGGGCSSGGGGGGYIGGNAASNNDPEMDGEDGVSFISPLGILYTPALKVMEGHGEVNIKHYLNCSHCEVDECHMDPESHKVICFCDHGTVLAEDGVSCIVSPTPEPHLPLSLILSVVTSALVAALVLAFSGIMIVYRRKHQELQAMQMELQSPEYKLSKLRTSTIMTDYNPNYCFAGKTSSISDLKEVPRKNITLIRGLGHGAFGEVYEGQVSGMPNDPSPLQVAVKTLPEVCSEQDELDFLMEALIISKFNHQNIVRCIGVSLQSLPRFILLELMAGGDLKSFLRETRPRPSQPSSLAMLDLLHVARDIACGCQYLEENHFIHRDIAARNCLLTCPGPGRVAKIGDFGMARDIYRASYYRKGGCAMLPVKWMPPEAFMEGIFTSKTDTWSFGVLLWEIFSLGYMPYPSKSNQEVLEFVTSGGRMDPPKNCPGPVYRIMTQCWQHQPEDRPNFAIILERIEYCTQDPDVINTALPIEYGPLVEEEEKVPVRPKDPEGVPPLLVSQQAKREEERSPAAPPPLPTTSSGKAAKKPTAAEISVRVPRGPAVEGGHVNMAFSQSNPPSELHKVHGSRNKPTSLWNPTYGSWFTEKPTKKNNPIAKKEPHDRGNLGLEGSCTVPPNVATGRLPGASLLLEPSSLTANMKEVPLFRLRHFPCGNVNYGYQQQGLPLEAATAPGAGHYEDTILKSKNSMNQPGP
# UniProt P78356, sequence (whole entry, looked up): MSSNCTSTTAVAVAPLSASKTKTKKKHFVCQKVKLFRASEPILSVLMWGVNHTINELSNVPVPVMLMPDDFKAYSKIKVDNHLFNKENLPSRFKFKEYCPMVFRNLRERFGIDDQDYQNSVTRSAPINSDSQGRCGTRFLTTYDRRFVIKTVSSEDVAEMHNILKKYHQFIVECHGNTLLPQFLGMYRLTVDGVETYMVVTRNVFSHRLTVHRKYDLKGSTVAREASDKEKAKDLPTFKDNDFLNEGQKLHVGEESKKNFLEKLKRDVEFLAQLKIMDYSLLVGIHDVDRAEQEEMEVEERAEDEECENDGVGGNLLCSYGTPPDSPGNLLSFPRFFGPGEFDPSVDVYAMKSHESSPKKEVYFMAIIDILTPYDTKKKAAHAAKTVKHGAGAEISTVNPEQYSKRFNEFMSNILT
# UniProt Q13153, sequence (whole entry, looked up): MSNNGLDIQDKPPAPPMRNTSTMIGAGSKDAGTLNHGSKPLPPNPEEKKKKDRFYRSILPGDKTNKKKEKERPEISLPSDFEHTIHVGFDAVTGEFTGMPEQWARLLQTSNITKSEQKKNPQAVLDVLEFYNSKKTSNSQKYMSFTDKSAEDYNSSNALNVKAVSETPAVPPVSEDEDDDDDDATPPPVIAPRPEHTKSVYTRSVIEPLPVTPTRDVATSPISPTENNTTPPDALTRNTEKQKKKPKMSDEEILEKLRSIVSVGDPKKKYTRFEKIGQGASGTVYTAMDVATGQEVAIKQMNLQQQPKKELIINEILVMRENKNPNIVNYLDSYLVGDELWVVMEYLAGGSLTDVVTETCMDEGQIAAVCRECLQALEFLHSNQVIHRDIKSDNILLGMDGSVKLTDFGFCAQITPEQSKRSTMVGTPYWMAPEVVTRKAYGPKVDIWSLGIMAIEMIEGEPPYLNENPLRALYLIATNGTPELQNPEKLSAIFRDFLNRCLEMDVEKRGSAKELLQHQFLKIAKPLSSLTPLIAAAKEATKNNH

# Series 1
# Target: NFIL3, bZIP domain (human)
# Method: DHFR protein complementation
# Medium: yeast
# Notes: single substitutions, most at no-binding floor
# Baseline: wild-type JUN-FOS pair
# Direction: higher = stronger binding
# Starting sequence: JUN, bZIP domain (human); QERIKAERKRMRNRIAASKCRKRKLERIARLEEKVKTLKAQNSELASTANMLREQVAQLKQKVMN; partner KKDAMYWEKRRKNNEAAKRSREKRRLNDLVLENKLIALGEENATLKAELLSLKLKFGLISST
Change,binding fitness [natural log]
K34P,-1.46
N42T,-1.4
Q41G,-1.41
Q55E,-1.51
T48M,-1.49
A40R,-1.51
K34V,-1.07
R53A,-1.5

# Series 2
# Target: Histone acetyltransferase KAT6A, winged helix 2, GST fusion (KAT6A, Homo sapiens, UniProt Q92794, residues 85-181)
# Method: protein binding microarray
# Molecule type: double-stranded DNA, one strand shown
# Medium: in vitro
# Tested at: not given
# Notes: 8-mer, flanks averaged, mean of 2 arrays, mostly near background
# Baseline: not given
# Direction: higher = stronger binding
# Construct (chain): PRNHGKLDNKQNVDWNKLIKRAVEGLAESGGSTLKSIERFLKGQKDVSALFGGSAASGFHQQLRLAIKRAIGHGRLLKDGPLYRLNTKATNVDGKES
Sequence,E-score
CGTTGGCA,0.0319
ATATACAC,-0.196
ACTACACA,-0.138
CCTGGTGC,0.0891
TGACTGAA,-0.0538
CGGGGCCA,0.207
AAATTAAA,0.185
CTACCTCA,-0.0931

# Series 3
# Host: mouse
# Medium: microsomes or S9
# Tested at: 2 µM
# Time: 0.5 h
SMILES,remaining compound [%]
CC(=O)c1ccc(S(=O)(=O)N(CCCO)Cc2cc3c(C)cc(C)cc3[nH]c2=O)cc1,16.6
O=C(N[C@H]1C2C=CC(C2)[C@H]1C(O)(c1ccccc1)c1ccccc1)OCc1ccccc1 (some centres unmarked),53.4
Cc1c(-c2cc(-c3cnn(C)c3C)n(Cc3ccc(Cl)c(Cl)c3)n2)cnn1C,0.407

# Series 4
# SMILES: COc1cccc(CNC(=O)c2nc3scc(COCc4ccc(C(=O)O)cc4)c3c(=O)[nH]2)c1
# Read-out: cell-free assay
# Method: competition with immobilised ligand
# Tested at: 1 µM
target,remaining binding [%]
"BLK (Homo sapiens, UniProt P51451)",100
"DDR2 (Homo sapiens, UniProt Q16832)",98.9
"PAK1 (Homo sapiens, UniProt Q13153)",100
"LTK (Homo sapiens, UniProt P29376)",70.6
"ALK (Homo sapiens, UniProt Q9UM73, C1156Y)",100
"FLT3 (Homo sapiens, UniProt P36888, D835Y)",94.3
"PRKX (Homo sapiens, UniProt P51817)",100
"CDK2 (Homo sapiens, UniProt P24941)",100
"EGFR (Homo sapiens, UniProt P00533, L858R/T790M)",58.6
"Tyrosine-protein kinase ABL1, phosphorylated (ABL1, Homo sapiens, UniProt P00519)",68.6
"PIP4K2B (Homo sapiens, UniProt P78356)",100
"PIK3C3 (Homo sapiens, UniProt Q8NEB9)",58.6
"EIF2AK2 (Homo sapiens, UniProt P19525)",97.7

# For quick reference, copied from above (series 1):
Change,binding fitness [natural log]
Q55E,-1.51
T48M,-1.49
A40R,-1.51
